{"data": "Experimental data pooled from the literature", "note": "Each numbered part is a random draw from the data of one study; scales do not carry over between parts.", "sequence of UniProt P48729 (whole entry, looked up)": "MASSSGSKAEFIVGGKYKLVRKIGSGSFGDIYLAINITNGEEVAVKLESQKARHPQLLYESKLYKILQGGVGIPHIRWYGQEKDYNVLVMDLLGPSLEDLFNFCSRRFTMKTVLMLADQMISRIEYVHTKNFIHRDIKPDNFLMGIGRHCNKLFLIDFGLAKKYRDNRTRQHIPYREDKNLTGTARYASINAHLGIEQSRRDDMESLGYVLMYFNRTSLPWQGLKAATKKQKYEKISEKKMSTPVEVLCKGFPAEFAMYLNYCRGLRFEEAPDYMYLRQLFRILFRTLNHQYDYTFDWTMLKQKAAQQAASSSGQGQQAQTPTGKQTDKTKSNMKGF", "sequence of UniProt O95382 (whole entry, looked up)": "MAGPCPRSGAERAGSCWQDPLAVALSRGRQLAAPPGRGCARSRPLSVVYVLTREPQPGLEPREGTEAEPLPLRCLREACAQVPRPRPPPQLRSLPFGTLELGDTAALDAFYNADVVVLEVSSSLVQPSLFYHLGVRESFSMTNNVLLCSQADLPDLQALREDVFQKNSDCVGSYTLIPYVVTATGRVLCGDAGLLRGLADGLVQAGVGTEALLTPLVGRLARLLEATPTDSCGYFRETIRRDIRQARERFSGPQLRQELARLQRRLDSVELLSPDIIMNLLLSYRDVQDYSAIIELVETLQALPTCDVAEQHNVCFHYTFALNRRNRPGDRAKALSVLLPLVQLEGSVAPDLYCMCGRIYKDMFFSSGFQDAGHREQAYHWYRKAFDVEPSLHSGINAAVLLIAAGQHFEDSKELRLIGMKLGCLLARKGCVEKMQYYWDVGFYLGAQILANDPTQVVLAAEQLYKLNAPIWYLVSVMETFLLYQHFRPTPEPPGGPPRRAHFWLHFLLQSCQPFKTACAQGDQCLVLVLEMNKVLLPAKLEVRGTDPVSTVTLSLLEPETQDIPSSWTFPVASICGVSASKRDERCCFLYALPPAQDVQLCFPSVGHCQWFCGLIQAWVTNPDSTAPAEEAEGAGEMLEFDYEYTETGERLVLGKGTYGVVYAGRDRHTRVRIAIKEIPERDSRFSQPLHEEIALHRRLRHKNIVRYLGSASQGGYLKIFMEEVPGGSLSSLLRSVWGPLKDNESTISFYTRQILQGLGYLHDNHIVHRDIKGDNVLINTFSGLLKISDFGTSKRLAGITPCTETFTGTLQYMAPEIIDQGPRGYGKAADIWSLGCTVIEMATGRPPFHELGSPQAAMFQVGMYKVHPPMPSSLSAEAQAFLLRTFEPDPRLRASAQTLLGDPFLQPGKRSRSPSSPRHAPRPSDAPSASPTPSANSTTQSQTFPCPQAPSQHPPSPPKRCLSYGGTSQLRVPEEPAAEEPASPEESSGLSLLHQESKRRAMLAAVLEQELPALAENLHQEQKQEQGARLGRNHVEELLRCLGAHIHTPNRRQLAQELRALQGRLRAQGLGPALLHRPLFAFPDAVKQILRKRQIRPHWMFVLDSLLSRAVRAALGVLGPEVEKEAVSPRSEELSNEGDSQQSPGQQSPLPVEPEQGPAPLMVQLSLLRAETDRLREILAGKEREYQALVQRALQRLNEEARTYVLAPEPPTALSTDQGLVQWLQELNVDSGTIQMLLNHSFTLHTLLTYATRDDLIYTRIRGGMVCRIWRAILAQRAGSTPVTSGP", "sequence of UniProt Q8NI60 (whole entry, looked up)": "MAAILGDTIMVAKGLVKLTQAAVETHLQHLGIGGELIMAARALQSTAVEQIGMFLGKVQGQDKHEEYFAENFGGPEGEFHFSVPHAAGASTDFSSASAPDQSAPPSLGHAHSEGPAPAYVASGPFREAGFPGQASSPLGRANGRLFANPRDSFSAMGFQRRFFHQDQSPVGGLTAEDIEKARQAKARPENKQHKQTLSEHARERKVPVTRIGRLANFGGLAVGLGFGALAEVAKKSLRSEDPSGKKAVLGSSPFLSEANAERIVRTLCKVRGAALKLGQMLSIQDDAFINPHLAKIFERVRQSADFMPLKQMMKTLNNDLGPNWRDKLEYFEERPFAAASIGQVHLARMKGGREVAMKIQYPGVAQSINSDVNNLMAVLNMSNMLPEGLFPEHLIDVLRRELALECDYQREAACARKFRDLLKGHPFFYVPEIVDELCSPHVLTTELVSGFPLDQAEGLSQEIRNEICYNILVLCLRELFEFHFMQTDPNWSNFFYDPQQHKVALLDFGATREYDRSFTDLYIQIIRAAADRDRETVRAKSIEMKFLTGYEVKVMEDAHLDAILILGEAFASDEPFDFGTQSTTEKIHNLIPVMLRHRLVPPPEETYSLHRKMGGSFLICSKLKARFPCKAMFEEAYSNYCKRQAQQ", "sequence of UniProt P11362 (whole entry, looked up)": "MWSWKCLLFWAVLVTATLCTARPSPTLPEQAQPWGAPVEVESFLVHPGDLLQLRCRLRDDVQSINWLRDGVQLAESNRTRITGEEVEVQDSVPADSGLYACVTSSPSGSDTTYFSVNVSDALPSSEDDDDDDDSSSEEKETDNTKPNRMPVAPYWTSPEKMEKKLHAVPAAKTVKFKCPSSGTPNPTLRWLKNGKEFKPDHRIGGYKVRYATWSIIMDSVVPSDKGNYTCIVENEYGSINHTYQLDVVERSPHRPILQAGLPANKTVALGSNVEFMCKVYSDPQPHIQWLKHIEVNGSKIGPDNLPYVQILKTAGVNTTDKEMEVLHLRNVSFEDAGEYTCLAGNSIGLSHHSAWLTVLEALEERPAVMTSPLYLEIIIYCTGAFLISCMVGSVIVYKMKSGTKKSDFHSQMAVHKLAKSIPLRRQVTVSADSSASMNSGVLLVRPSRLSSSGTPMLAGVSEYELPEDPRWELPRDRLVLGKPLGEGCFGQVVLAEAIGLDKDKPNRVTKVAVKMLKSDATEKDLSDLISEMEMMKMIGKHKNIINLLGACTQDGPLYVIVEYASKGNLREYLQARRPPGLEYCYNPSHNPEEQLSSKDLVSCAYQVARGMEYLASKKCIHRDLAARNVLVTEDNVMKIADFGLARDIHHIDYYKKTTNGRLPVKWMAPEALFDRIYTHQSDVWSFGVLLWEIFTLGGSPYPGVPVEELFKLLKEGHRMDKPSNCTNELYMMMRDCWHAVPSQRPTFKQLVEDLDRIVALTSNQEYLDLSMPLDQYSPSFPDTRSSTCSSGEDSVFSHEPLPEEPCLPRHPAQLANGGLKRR", "sequence of UniProt P07333 (whole entry, looked up)": "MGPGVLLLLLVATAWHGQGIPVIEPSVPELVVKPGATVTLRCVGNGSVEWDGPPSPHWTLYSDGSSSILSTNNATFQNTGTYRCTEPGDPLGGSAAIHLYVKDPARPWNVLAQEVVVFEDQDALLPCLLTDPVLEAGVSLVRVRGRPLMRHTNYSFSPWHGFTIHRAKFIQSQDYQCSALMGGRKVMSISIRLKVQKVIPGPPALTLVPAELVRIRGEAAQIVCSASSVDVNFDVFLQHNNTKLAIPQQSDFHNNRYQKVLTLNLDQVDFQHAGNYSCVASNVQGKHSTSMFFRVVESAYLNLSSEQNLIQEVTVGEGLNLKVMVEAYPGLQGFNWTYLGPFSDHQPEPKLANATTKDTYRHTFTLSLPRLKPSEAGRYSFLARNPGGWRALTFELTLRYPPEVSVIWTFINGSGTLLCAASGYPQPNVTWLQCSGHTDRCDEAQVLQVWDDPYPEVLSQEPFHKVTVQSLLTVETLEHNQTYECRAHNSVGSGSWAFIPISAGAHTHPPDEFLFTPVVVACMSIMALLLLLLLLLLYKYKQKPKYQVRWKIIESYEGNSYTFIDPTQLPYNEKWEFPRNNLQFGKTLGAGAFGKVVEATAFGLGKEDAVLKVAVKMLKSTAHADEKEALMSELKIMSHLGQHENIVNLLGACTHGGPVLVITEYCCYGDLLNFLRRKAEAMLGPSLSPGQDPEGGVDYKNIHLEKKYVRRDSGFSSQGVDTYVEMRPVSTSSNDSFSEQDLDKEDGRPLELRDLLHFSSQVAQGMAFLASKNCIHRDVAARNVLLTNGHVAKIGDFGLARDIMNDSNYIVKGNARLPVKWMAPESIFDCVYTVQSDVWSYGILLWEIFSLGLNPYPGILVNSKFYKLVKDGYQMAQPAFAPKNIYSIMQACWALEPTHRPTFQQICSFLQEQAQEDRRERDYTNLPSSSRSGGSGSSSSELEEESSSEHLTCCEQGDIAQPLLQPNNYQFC"}
{"data": "Block 1", "target": "Calcium/calmodulin-dependent protein kinase type II subunit alpha (CAMK2A, Homo sapiens, UniProt Q9UQM7)", "effect on": "enzyme activity", "mode": "inhibitor", "concentration": "10 µM", "sequence of UniProt Q9UQM7 (whole entry, looked up)": "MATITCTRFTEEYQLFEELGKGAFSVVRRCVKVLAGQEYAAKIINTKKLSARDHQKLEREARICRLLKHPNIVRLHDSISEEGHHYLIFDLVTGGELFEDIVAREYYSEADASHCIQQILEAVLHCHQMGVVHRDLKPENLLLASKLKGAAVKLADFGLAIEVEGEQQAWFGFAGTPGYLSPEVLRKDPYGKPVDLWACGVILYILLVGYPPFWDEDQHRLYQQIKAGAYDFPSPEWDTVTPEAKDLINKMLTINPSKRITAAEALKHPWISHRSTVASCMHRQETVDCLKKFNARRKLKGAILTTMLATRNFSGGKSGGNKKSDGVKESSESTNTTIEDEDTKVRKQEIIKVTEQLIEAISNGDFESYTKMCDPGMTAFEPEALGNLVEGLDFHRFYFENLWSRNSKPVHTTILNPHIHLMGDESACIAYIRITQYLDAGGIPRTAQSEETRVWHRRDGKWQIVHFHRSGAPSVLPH"}
{"SMILES": "CCC(C)CC(=O)O (stereo not shown)", "inhibition [%]": -14}
{"SMILES": "N[C@@H](CSCCCO)C(=O)O", "inhibition [%]": -12}
{"SMILES": "Cc1ccc2oc(-c3ccccc3)cc(=O)c2c1", "inhibition [%]": -8}
{"SMILES": "C=C1C(=O)O[C@H]2[C@H]1CC[C@]1(C)O[C@@]13CC[C@@](C)(O)[C@H]23", "inhibition [%]": -4}
{"SMILES": "CC(=O)O[C@H]1Cc2cc3c(cc2[C@H]2N(C)Cc4c(ccc5c4OCO5)[C@@]12C)OCO3", "inhibition [%]": 4}
{"SMILES": "CN(C)c1nc(N(C)C)nc(N(C)C)n1", "inhibition [%]": -3}
{"SMILES": "Cc1ccn(-c2cc(Cl)ccc2[C@@H](Oc2cc(-c3ccc(C[C@H](N)C(=O)O)cc3)nc(N)n2)C(F)(F)F)n1", "inhibition [%]": -4}
{"SMILES": "CCCCCC(=O)CC(=O)NC1CCOC1=O (racemic)", "inhibition [%]": -15}
{"SMILES": "CCCCOc1ccc(C(=O)CCN2CCCCC2)cc1", "inhibition [%]": 1}
{"SMILES": "COc1ccc(C(=O)O)cc1O", "inhibition [%]": -43}
{"SMILES": "CC(=O)c1ccc[nH]1", "inhibition [%]": 18}
{"SMILES": "CCOC(=O)[C@@](C)(N)Cc1ccc(O)c(O)c1", "inhibition [%]": -5}
{"SMILES": "COc1cc(CC(=O)O)ccc1O", "inhibition [%]": -14}
{"data": "Block 2", "host": "mouse", "matrix": "microsomes or S9", "concentration": "2 µM", "time": "0.5 h"}
{"Structure (SMILES)": "COc1cc2c(Nc3ccc(Br)cc3F)ncnc2cc1OCC1CN(C(=O)OC(C)(C)C)CCO1 (stereo not shown)", "remaining compound": "2.54%"}
{"Structure (SMILES)": "COc1ncc(-c2ccc(-c3ccn[nH]3)cc2)c(OC)n1", "remaining compound": "28.4%"}
{"Structure (SMILES)": "CCS(=O)(=O)N1CCN(c2ccc(Cl)c(Cl)c2)CC1", "remaining compound": "66.4%"}
{"Structure (SMILES)": "Cc1ccc(/C=C/c2onc(C)c2S(=O)(=O)N2CCC(C(=O)Nc3cccnc3)CC2)cc1", "remaining compound": "94.2%"}
{"Structure (SMILES)": "COc1ccc(C(CC(N)=O)c2c(Cc3ccc4c(c3)CCO4)[nH][nH]c2=O)cc1OC (stereo not shown)", "remaining compound": "47.4%"}
{"Structure (SMILES)": "N=c1c2cnn(-c3ccccc3)c2[nH]c(=O)n1-c1ccccc1", "remaining compound": "> 100%"}
{"Structure (SMILES)": "CCOc1cc(=O)n2c(c1C(=O)NCCCN1CCCc3ccccc31)CCCCC2", "remaining compound": "< 1%"}
{"Structure (SMILES)": "Cc1cc(C)c2nc(Nc3nc(C)c(C)c(O)n3)nc(C)c2c1", "remaining compound": "4.93%"}
{"Structure (SMILES)": "CCCN1CCN(C(=O)C2=C(C)C(=O)OC23CCN(S(=O)(=O)CC)CC3)CC1", "remaining compound": "94.8%"}
{"Structure (SMILES)": "Oc1cc(-c2ccc(-c3ccc(Br)cc3)cc2)nn1-c1ccccn1", "remaining compound": "69.3%"}
{"Structure (SMILES)": "Oc1ccc(Oc2nc3ccccc3nc2Oc2ccc(O)cc2)cc1", "remaining compound": "78.1%"}
{"Structure (SMILES)": "CCOC(=O)c1c(C)c(C(=O)NCCCN(C)C)c(C)n1CC", "remaining compound": "80.7%"}
{"Structure (SMILES)": "COC(=O)CC(c1cnn(C(C)C)c1)c1c(O)cc(C)n(CCc2c[nH]cn2)c1=O (stereo not shown)", "remaining compound": "91.3%"}
{"Structure (SMILES)": "O=C1NCCN1C(=O)N1CCCC(Oc2cccnn2)C1 (stereo not shown)", "remaining compound": "> 99%"}
{"data": "Block 3", "target": "Serine/threonine-protein kinase NLK (NLK, Homo sapiens, UniProt Q9UBE8)", "effect on": "enzyme activity", "mode": "inhibitor", "concentration": "0.5 µM", "relative to": "control", "sequence of UniProt Q9UBE8 (whole entry, looked up)": "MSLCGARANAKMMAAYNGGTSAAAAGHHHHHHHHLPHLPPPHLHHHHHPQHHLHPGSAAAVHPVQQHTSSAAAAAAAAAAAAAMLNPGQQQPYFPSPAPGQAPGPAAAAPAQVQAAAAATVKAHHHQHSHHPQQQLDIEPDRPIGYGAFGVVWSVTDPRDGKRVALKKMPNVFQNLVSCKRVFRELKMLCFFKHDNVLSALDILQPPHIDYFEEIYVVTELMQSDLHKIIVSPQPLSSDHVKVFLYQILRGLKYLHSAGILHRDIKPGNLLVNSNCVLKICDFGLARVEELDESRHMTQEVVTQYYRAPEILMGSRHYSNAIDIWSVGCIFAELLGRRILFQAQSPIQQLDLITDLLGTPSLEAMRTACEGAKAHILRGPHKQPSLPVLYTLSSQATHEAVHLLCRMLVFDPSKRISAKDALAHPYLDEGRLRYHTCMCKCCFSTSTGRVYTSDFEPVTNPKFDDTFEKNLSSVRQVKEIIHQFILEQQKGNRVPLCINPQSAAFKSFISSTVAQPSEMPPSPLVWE"}
{"SMILES": "CN(C)C[C@H]1CCn2c(c(C3=C(c4cn(C)c5ccccc45)C(=O)NC3=O)c3ccccc32)C1", "remaining activity": "101%"}
{"SMILES": "Cc1cn(-c2cc(NC(=O)c3ccc(C)c(Nc4nccc(-c5cccnc5)n4)c3)cc(C(F)(F)F)c2)cn1", "remaining activity": "105%"}
{"SMILES": "CCN(CC)C(=O)c1ccc(Nc2nc(OCC3CCCCC3)c3[nH]cnc3n2)cc1", "remaining activity": "94.5%"}
{"SMILES": "COc1cc2ncnc(Nc3cccc(Cl)c3)c2cc1OC", "remaining activity": "83.1%"}
{"SMILES": "CCN(CC)CCNC(=O)c1c(C)[nH]c(/C=C2\\C(=O)Nc3ccc(F)cc32)c1C", "remaining activity": "105%"}
{"SMILES": "COc1cc2c(cc1OC)-c1[nH]nc(Nc3cccc(F)c3)c1C2", "remaining activity": "74.1%"}
{"SMILES": "N#Cc1c(NC(=O)c2cccc3ccccc23)sc2c1CCCC2", "remaining activity": "99.4%"}
{"SMILES": "COc1cc2ncnc(Nc3ccc(O)c(Br)c3)c2cc1OC", "remaining activity": "76.2%"}
{"SMILES": "Cc1nc2cc3nc(-c4cccs4)cnc3cc2n1C", "remaining activity": "105%"}
{"SMILES": "CCOc1nc(NC(=O)Cc2cc(OC)ccc2OC)cc(N)c1C#N", "remaining activity": "104%"}
{"SMILES": "Cn1nc2c3c(cccc31)C(=O)c1ccccc1-2", "remaining activity": "100%"}
{"SMILES": "O=C1c2ccccc2-c2n[nH]c3cccc1c23", "remaining activity": "96.1%"}
{"SMILES": "Nc1cccc(-c2cc3c(Oc4cccc(O)c4)ncnc3[nH]2)c1", "remaining activity": "87.7%"}
{"data": "Block 4", "Compound": "CCOC(=O)c1cc2cc(-c3cc(C(=O)NCc4ccc(C(=O)O)cc4)nn3C)ccc2[nH]1", "effect on": "cell-free assay", "technique": "competition with immobilised ligand", "concentration": "0.1 µM"}
{"target": "MET (Homo sapiens, UniProt P08581, M1250T)", "remaining binding [%]": 87}
{"target": "FGFR1 (Homo sapiens, UniProt P11362)", "remaining binding [%]": 86}
{"target": "CSF1R (Homo sapiens, UniProt P07333)", "remaining binding [%]": 100}
{"target": "NEK10 (Homo sapiens, UniProt Q6ZWH5)", "remaining binding [%]": 90}
{"target": "CSNK1A1 (Homo sapiens, UniProt P48729)", "remaining binding [%]": 88}
{"target": "COQ8A (Homo sapiens, UniProt Q8NI60)", "remaining binding [%]": 100}
{"target": "PRKCH (Homo sapiens, UniProt P24723)", "remaining binding [%]": 87}
{"target": "MARK2 (Homo sapiens, UniProt Q7KZI7)", "remaining binding [%]": 100}
{"target": "MAP3K6 (Homo sapiens, UniProt O95382)", "remaining binding [%]": 79}
{"note": "For quick reference, copied from above (block 1):"}
{"SMILES": "CCCCCC(=O)CC(=O)NC1CCOC1=O (racemic)", "inhibition [%]": -15}
{"SMILES": "CN(C)c1nc(N(C)C)nc(N(C)C)n1", "inhibition [%]": -3}
{"SMILES": "CCC(C)CC(=O)O (stereo not shown)", "inhibition [%]": -14}
{"SMILES": "Cc1ccn(-c2cc(Cl)ccc2[C@@H](Oc2cc(-c3ccc(C[C@H](N)C(=O)O)cc3)nc(N)n2)C(F)(F)F)n1", "inhibition [%]": -4}
{"SMILES": "CCCCOc1ccc(C(=O)CCN2CCCCC2)cc1", "inhibition [%]": 1}
{"SMILES": "C=C1C(=O)O[C@H]2[C@H]1CC[C@]1(C)O[C@@]13CC[C@@](C)(O)[C@H]23", "inhibition [%]": -4}
{"SMILES": "CC(=O)c1ccc[nH]1", "inhibition [%]": 18}
{"SMILES": "CCOC(=O)[C@@](C)(N)Cc1ccc(O)c(O)c1", "inhibition [%]": -5}
